Assay results from different studies.
± gives the spread as reported.

With CCN(CC)CCO[C@H]1CC[C@@]2(C)C(=CC[C@@H]3[C@@H]2CC[C@]2(C)C(=O)CC[C@@H]32)C1 the EC50 was 7.84 µM (human rotavirus; viral replication, focus reduction; MA104; pretreated 20 h before infection).
With COc1ccc(-c2ccnc3[nH]nc(C#Cc4cccnc4)c23)cc1OC the EC50 was 2.62 ± 0.46 µM (dengue virus 2; viral replication; Huh-7).
CN(C)CCC(c1ccccc1)c1ccccn1 (centres unmarked) has an IC50 of 10 µM (Plasmodium falciparum; Dd2).
NC(=O)c1nc(F)c[nH]c1=O has an EC50 of 39 µM (Zika virus; viral replication; BHK-21, ZIKV; 72 h).
For CSc1nc2nc(C)c(Cc3cccc(C(F)(F)F)c3)c(C)n2n1, the EC50 was 0.471 ± 0.087 µM (Plasmodium falciparum; parasite growth, SYBR Green; 3D7 wild type; 72 h).
For COc1cc(-c2ccnc3[nH]cc(C#Cc4cccnc4)c23)ccc1F, the EC50 was 2.52 ± 0.47 µM (dengue virus 2; viral replication; Huh-7).
For Cc1ccc(NC(=O)c2cc(S(=O)(=O)NC(C)(C)C)ccc2C)nc1, the EC50 was 5.56 ± 1.1 µM (Plasmodium falciparum; parasite growth, SYBR Green; 3D7 DHODH E182D; 72 h).
Nc1nc(O)c2ncn(COC(CO)CO)c2n1 gave an EC50 of greater than 100 µM (feline infectious peritonitis virus; viral cytopathic effect, MTS; CRFK).
With O[C@@H]1[C@H](O)[C@@H]2C[C@@H]2[C@H]1n1cnc2c(NC(C3CC3)C3CC3)nc(Cl)nc21 the EC50 was 32 µM (respiratory syncytial virus; viral replication, neutral red; MA104, A2).
O=C(CN1CCN(C(=O)c2ccco2)CC1)Nc1ccccc1Br has an EC50 of 0.154 ± 0.019 µM (Plasmodium falciparum; parasite growth; Dd2).
With COc1ccc(-c2ncnc3[nH]nc(C#Cc4cccnc4)c23)cc1OC the EC50 was greater than 10 µM (dengue virus 2; viral replication; Huh-7).
With NC(=O)c1ncn([C@@H]2O[C@H](CO)[C@@H](O)[C@H]2O)n1 the EC50 was 6 µM (respiratory syncytial virus; viral replication; HeLa).
For CCc1nc2nc(C)cc(Nc3cc(C)cc(C)c3)n2n1, the EC50 was 0.102 ± 0.028 µM (Plasmodium falciparum; parasite growth; Dd2).
NC(=O)[C@@H](CCC(F)(F)F)N(Cc1ccc(-c2ncon2)cc1F)S(=O)(=O)c1ccc(Cl)cc1 has an EC50 of 7.7 µM (dengue virus 2; viral replication, luciferase reporter virus; Huh-7.5.1).
C(#Cc1c[nH]c2nccc(-c3ccsc3)c12)c1cccnc1 has an EC50 of 7.56 ± 0.74 µM (dengue virus 2; viral replication; Huh-7).
With c1nc2nc3c(c(Nc4ccc5c(c4)CCC5)n2n1)CCC3 the EC50 was 0.354 ± 0.11 µM (Plasmodium falciparum; parasite growth, SYBR Green; 3D7 wild type; 72 h).
CCOC(=O)Nc1ccc(NCc2ccc(F)cc2)nc1N gave an IC50 of 6.31 µM (Plasmodium falciparum; D10).
C[C@H]1CN(c2n[nH]c3nc(N[C@H]4CC[C@H](NS(=O)(=O)CCC(F)(F)F)CC4)ncc23)CCO1 gave an EC50 of 0.0094 ± 4e-05 µM (Leishmania donovani; promastigotes, LdBOB CRK3 overexpressing).
Fc1ccc(-c2ccnc3[nH]cc(C#Cc4cccnc4)c23)cc1 gave an EC50 of 6.17 ± 0.56 µM (dengue virus 2; viral replication; Huh-7).
With CC(C)[C@H](O)C(=O)N[C@@H](C)C(=O)N[C@@H]1C(=O)N(C)CCc2ccccc21 the EC50 was 3.4 µM (dengue virus 2; viral replication, luciferase reporter virus; Huh-7.5.1).
With NC(=O)c1ncn([C@@H]2O[C@H](CO)[C@@H](O)[C@H]2O)n1 the EC50 was 16 µM (dengue virus 2; viral replication; BHK-21; 96 h).
The EC50 of Cc1[nH]c2ccc(-c3ccccc3)cc2c(=O)c1Br is reported as 0.558 ± 0.12 µM (Plasmodium falciparum; parasite growth, SYBR Green; 3D7 DHODH E182D; 72 h).
The EC50 of CC(=O)c1cc(O)c2ccccc2c1O is reported as 5 µM (Dengue virus 2; viral replication; replicon).

For quick reference, copied from above:
With COc1ccc(-c2ncnc3[nH]nc(C#Cc4cccnc4)c23)cc1OC the EC50 was greater than 10 µM (dengue virus 2; viral replication; Huh-7).
With COc1ccc(-c2ccnc3[nH]nc(C#Cc4cccnc4)c23)cc1OC the EC50 was 2.62 ± 0.46 µM (dengue virus 2; viral replication; Huh-7).
O=C(CN1CCN(C(=O)c2ccco2)CC1)Nc1ccccc1Br has an EC50 of 0.154 ± 0.019 µM (Plasmodium falciparum; parasite growth; Dd2).
